Experimental data from different studies.
Parts stem from different laboratories: compare values within a part only.

Sample 1
Target: Ras GTPase-activating protein-binding protein 1, RRM domain (G3BP1, Homo sapiens, UniProt Q13283)
UniProt Q13283, sequence (whole entry, looked up): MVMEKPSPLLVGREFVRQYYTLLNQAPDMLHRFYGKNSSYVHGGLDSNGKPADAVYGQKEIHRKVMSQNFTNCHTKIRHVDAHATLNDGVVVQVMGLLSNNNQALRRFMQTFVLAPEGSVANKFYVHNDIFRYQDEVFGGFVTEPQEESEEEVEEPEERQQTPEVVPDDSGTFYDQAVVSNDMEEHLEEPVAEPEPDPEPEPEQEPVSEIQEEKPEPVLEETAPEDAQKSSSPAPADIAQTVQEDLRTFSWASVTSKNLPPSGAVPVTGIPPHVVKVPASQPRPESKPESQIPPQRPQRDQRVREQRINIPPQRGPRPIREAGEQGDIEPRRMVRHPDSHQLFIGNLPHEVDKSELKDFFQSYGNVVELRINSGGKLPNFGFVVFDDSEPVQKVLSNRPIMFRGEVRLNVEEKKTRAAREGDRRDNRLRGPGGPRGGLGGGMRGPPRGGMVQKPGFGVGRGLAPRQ
Method: RNA Bind-n-Seq
Form: RNA
Sample: in vitro
Concentration: 1 µM
Notes: whole 134-nt RNA, ends assumed
Added: 150 mM KCl
Reference: input library
Direction: higher = stronger binding
Shared flanks, not repeated: GGGAGUUCUACAGUCCGACGAUC … UGGAAUUCUCGGGUGUCAAGG
Strand | log2 enrichment
CCUGUGCUACACAUCGUAUGUACCGAAUCGGAAAAAAAGGGGAAAAAAAGGAAAAAAAGGAAAGUAUUAUGUUACGCCGUUCGGAUCUGC | 0.147
UUUGAAGAUCAGCUUCAGCAAUGGUUGUCUGAAGACUCAGGAGCAUUUACGGAUUUAACUUCCCUUCCCCUCUAUCUUCCUCAGACUCUA | -0.123
UGGCCCUGAUGGCAUGCGGGGAGGAAGAGGUGGCCUCAUGGAUCGUGGUGGUCCCGGUGGAAUGUUCAGAGGUGGCCGUGGUGGAGACAG | 0.991
CACAGACAACACGCACCCACACAGACUCAGAGGGAAGGGGUUGGGAUGGGGACAGGGUGCACAGCAGGGCGGGGUAGGACCCCAGCCCCU | -0.00592
UGUGCUACACAUCGUAUGUACCGAAUCGGUUUUUUUGGGGUUUUUUUGGGGUUUUUUUGGGGAAAGUAUUAUGUUACGCCGUUCGGAUCU | -0.0926

Sample 2
Target: Centromere-binding protein 1, full length, N-terminal tag (CBF1, Saccharomyces cerevisiae, UniProt P17106, residues 1-351)
UniProt P17106, sequence (whole entry, looked up): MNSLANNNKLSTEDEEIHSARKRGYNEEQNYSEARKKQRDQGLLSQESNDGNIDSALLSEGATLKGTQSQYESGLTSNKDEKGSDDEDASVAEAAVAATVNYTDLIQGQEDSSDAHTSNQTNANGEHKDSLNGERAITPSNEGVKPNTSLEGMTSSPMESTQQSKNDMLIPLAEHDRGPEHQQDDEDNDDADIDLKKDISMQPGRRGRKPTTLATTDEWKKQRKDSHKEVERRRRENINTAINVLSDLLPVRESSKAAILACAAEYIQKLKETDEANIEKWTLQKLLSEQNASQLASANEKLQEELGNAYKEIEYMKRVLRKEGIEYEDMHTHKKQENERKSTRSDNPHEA
Method: protein-binding microarray
Form: double-stranded DNA, one strand shown
Sample: in vitro
Concentration: 0.8 µM
Notes: whole 60-bp probe, no competitor
Direction: higher = stronger binding
Shared flanks, not repeated: … GTCTTGATTCGCTTGACGCTGCTG
Strand | fluorescence intensity [a.u.]
GAAATTTAATTCTGCCACATGGTAGGTTCATTTTAG | 641
GAATCATTCACTGTTCAGCTGATACAAAACATATAG | 922
GAATACTGTTTTCGTCACGTTCCGAACAGCAGCTAG | 1660
TGTACGAAGCTATTTCACGCAATTATAGTAGTTAGG | 544
CTAACACATTAACCACACGTTCAGATATGTATGTTC | 555
GAATTCCAATCGGAGCACGTGAATTTGTAACCATAG | 4660
TGTACGAAGCTATAATGCATGACTATAGTAGTTAGG | 563
CTATGCGGGCGTGGTGCTGATGTTCTTCGAGACTTC | 516

Sample 3
Target: Sal-like protein 4, full length isoform A (SALL4, Homo sapiens, UniProt Q9UJQ4, residues 1-1053)
UniProt Q9UJQ4, sequence (whole entry, looked up): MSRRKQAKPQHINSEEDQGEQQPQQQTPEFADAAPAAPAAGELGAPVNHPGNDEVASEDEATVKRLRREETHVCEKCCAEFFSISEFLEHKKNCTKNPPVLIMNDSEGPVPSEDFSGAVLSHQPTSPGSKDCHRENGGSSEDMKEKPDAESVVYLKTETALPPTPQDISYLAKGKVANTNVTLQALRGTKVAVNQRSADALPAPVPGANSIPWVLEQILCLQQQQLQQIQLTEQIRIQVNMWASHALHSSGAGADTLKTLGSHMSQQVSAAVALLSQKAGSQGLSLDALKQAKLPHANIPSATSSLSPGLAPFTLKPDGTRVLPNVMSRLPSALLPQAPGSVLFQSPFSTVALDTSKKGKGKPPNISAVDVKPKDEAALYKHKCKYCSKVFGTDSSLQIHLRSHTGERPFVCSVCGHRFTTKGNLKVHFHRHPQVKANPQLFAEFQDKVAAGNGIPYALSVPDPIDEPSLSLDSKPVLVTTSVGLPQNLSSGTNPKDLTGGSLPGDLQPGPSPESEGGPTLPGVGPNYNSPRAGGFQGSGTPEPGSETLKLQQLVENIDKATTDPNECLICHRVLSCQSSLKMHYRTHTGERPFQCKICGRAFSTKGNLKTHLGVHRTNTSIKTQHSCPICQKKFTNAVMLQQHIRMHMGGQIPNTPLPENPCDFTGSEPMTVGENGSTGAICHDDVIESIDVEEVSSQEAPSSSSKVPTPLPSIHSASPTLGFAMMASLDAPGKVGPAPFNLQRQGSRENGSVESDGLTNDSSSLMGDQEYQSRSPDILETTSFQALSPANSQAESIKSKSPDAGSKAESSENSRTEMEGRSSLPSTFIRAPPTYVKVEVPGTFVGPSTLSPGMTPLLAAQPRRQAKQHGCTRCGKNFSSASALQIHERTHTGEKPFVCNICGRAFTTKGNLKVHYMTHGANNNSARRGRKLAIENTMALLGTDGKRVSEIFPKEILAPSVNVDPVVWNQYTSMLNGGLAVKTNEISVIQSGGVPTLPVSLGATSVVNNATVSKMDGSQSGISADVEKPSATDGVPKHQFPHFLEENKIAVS
Method: universal PBM
Form: double-stranded DNA, one strand shown
Sample: in vitro
Concentration: 600 nM
Notes: 8-mer, flanks averaged, mean of replicates
Direction: higher = stronger binding
Strand | E-score
TCGTAAAA | 0.301
CATCGCTC | -0.257
CGACCTTA | 0.0673
CCCTTACG | -0.124
TGACAGCA | 0.0412
GATAGGGC | -0.215
CAGGTGTC | -0.224
ACAGTTCC | -0.0389

Sample 4
Molecule: PhoQ, residues 284 288 289 292 302 303 GLASVI
Method: Sort-seq
Measured: YFP reporter
Sample: E. coli
Notes: PhoQ-PhoP variant library
Added: 10 µM Mg2+
Reference: high Mg2+ state
Direction: higher = stronger signaling
target | fold induction
PhoP, residues 12 14 15 18 19 QYFSL (Escherichia coli, UniProt P23836) | 2.82
PhoP, residues 12 14 15 18 19 NYFRM (Escherichia coli, UniProt P23836) | 9.23
PhoP, residues 12 14 15 18 19 TQALL (Escherichia coli, UniProt P23836) | 6.61

Repeated from above (sample 3):
Strand | E-score
CATCGCTC | -0.257
CGACCTTA | 0.0673
